Results from different studies.
Parts stem from different laboratories: compare values within a part only. Positions count from the first letter of the parent shown.

Set 1
Target: Fragile X messenger ribonucleoprotein 1, C-terminal low-complexity region (Fmr1, Mus musculus, UniProt P35922)
Method: RNA Bind-n-Seq
Form: RNA
Medium: in vitro
Tested at: 200 nM
Notes: whole 134-nt RNA, ends assumed
With: 150 mM KCl
Baseline: input library
Reading: higher = stronger binding
Measurement: log2 enrichment
Sequence = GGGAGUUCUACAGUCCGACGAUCCACAGACAACACGCACCCACACAGCCACAGAGGGAAGGGGUUGGGAUGGGGACAGGGUGCACAGCAGGGCGGGGUAGGACCCCAGCCCCUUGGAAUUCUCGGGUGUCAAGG; result = 1.31
Sequence = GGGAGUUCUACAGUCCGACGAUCCAAGUCCUGUGCUACACAUCGUAUGUACCGAAUCGGAAAAGGGGAAAAGGAAAAGGAAAGUAUUAUGUUACGCCGUUCGGAUCUGCACUUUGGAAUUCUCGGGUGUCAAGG; result = -0.617
Sequence = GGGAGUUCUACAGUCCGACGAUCUCAAGUCCUGUGCUACACAUCGUAUGUACCGAAUCGGGUUUUUGGGAGGGAGGGAAAGUAUUAUGUUACGCCGUUCGGAUCUGCACUUCCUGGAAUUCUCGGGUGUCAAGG; result = 1.12
Sequence = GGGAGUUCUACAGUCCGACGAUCCUGUGCUACACAUCGUAUGUACCGAAUCGGGAAAAAAAGGGAAAAAAAGGGAAAAAAAGGGGAAAGUAUUAUGUUACGCCGUUCGGAUCUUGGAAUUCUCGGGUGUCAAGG; result = -0.376
Sequence = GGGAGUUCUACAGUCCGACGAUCUCCUGUGCUACACAUCGUAUGUACCGAAUCGGGGCCCCCGGGCCCCCGGGCCCCCGGGGAAAGUAUUAUGUUACGCCGUUCGGAUCUGCAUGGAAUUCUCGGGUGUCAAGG; result = -1.1
Sequence = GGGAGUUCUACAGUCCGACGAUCUGGCCCUGGUGGCAUUCGGGGAGGAAGAGGUGGCCUCAUGGAUCGUGGUGGUCCCGGUGGAAUGUUCAGAGGUGGCCGUGGUGGAGACAGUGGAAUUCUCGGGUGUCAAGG; result = 0.122
Sequence = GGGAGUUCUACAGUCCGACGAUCGUCCUGUGCUACACAUCGUAUGUACCGAAUCGGGUGGGUUUUUUUGGGAAAAAAAGGGAAAGUAUUAUGUUACGCCGUUCGGAUCUGCACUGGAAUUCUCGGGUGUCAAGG; result = 0.112
Sequence = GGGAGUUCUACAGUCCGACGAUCAAGUCCUGUGCUACACAUCGUAUGUACCGAAUCGGAAAAGGGGAAAAGGAAAAGGGGAAAGUAUUAUGUUACGCCGUUCGGAUCUGCACUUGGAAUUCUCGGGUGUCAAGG; result = -0.118
Sequence = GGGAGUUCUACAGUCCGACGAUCGUCCUGUGCUACACAUCGUAUGUACCGAAUCGGGGCCCCGGGGCCCCGGGCCCCGGGGAAAGUAUUAUGUUACGCCGUUCGGAUCUGCACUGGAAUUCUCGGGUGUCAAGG; result = -0.0567
Sequence = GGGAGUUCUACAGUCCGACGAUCUCCUGUGCUACACAUCGUAUGUACCGAAUCGGGCCCCCCGGGCCCCCCGGGCCCCCCGGAAAGUAUUAUGUUACGCCGUUCGGAUCUGCAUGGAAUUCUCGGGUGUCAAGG; result = -0.257

Set 2
Target: Histone acetyltransferase KAT6A, winged helix 2, GST fusion (KAT6A, Homo sapiens, UniProt Q92794, residues 85-181)
Method: protein binding microarray
Form: double-stranded DNA, one strand shown
Medium: in vitro
Tested at: not given
Notes: 8-mer, flanks averaged, mean of 2 arrays, mostly near background
Baseline: not given
Reading: higher = stronger binding
Measurement: E-score
Construct (chain): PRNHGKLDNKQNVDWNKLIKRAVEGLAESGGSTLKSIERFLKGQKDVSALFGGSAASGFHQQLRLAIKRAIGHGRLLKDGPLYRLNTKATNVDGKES
Sequence = CGCGAACA; result = 0.187
Sequence = CGCCCCTC; result = -0.00357
Sequence = AATCCAGA; result = 0.0661
Sequence = GAGATTCA; result = 0.0448
Sequence = CCATCCGC; result = 0.197
Sequence = ACCGGTCT; result = -0.137
Sequence = AAGCGCAC; result = -0.00041
Sequence = GCCCGAAA; result = 0.136
Sequence = ATATACGG; result = -0.00208
Sequence = CGTGACCA; result = -0.0688
Sequence = TACGATGA; result = -0.00166
Sequence = ATCTGTAC; result = -0.127
Sequence = CCAGGGAG; result = 0.0245
Sequence = CTCTGCTC; result = 0.11
Sequence = AATCTACG; result = -0.118
Sequence = CTCCGTGA; result = 0.157
Sequence = TCTTTTCA; result = -0.172
Sequence = ATATCCAT; result = -0.011
Sequence = GGTACCTA; result = -0.0806
Sequence = GCGGAAAC; result = 0.0232
Sequence = AGACTTCA; result = -0.233
Sequence = CCGTGGTC; result = -0.0736
Sequence = AAAGACCT; result = -0.0984
Sequence = AATCCCTC; result = 0.0822
Sequence = ACCAGAAA; result = -0.0108

Set 3
Target: Sal-like protein 4, full length isoform B (SALL4, Homo sapiens, UniProt Q9UJQ4-2, residues 1-616)
Method: universal PBM
Form: double-stranded DNA, one strand shown
Medium: in vitro
Tested at: not given
Notes: 8-mer, flanks averaged, mean of replicates
Reading: higher = stronger binding
Measurement: E-score
Sequence = CTCATGCA; result = 0.0848
Sequence = AATCCACA; result = 0.223
Sequence = CGGAGTCA; result = -0.258
Sequence = CTGGGACA; result = -0.18
Sequence = CTCCTTTA; result = 0.118
Sequence = AAAACATC; result = 0.0904
Sequence = CACAGGCA; result = -0.2
Sequence = ACGGGTAC; result = -0.186
Sequence = GCCCTTAA; result = 0.0043
Sequence = ACCGGCCT; result = -0.286
Sequence = GTGTACAC; result = 0.277
Sequence = CTTTTCAC; result = 0.0258
Sequence = ACCTATCT; result = 0.0959
Sequence = ACGTACCT; result = 0.0118
Sequence = CCGAGAAA; result = 0.0797
Sequence = TAGCCCTA; result = 0.0472
Sequence = AGAAACAG; result = 0.022
Sequence = TTGCCCAA; result = 0.058
Sequence = TATCGTCA; result = 0.0879

Set 4
Target: CCND2, cyclin fold, Cln2 fusion (human)
Method: yeast growth competition, sequencing
Medium: yeast
Notes: strong parent motif
Baseline: not given
Reading: higher = stronger binding
Measurement: normalised enrichment score
Starting sequence: E2F1 docking peptide (human); PPVKRRLDFETDH
Variant = PPVKRRLDRETDH [F9R]; result = 0.147
Variant = PYVKRRLDFETDH [P2Y]; result = 0.901
Variant = PPVKRRLDFEEDH [T11E]; result = 1.92
Variant = PPVKRRLDGETDH [F9G]; result = 0.161
Variant = PPVKRRLDFEDDH [T11D]; result = 2.02
Variant = PPVKRHLDFETDH [R6H]; result = 0.556
Variant = PCVKRRLDFETDH [P2C]; result = 1.81
Variant = PPVKRRLDFENDH [T11N]; result = 2.12
Variant = PPVKRRLEFETDH [D8E]; result = 1.15
Variant = PPAKRRLDFETDH [V3A]; result = 1.69
Variant = PPVKRRWDFETDH [L7W]; result = 0.22
Variant = PSVKRRLDFETDH [P2S]; result = 1.51
Variant = PPVKRRLDKETDH [F9K]; result = 0.239
Variant = PPVKRRLDAETDH [F9A]; result = 0.17
Variant = PPVKRRLDPETDH [F9P]; result = -0.0775
Variant = PPVYRRLDFETDH [K4Y]; result = 0.532
Variant = PPVKRRTDFETDH [L7T]; result = 0.271
Variant = PPNKRRLDFETDH [V3N]; result = -0.0794
Variant = PPVKRRLHFETDH [D8H]; result = 0.684
Variant = PPVKRRLDFETYH [D12Y]; result = 2.03
Variant = PTVKRRLDFETDH [P2T]; result = 1.52
Variant = PPVKARLDFETDH [R5A]; result = 0.43
Variant = PPVKERLDFETDH [R5E]; result = 0.105
Variant = PPVKRRLTFETDH [D8T]; result = 2.09
Variant = PPPKRRLDFETDH [V3P]; result = 0.64

For quick reference, copied from above (set 2):
Sequence = GCCCGAAA; result = 0.136
Sequence = ATATACGG; result = -0.00208
Sequence = CGTGACCA; result = -0.0688
Sequence = TACGATGA; result = -0.00166
